Assay results gathered from unrelated publications.
Lines come from different studies, so protocols differ. ± marks the error that the study gave.
Sequence of UniProt P37136 (whole entry, looked up): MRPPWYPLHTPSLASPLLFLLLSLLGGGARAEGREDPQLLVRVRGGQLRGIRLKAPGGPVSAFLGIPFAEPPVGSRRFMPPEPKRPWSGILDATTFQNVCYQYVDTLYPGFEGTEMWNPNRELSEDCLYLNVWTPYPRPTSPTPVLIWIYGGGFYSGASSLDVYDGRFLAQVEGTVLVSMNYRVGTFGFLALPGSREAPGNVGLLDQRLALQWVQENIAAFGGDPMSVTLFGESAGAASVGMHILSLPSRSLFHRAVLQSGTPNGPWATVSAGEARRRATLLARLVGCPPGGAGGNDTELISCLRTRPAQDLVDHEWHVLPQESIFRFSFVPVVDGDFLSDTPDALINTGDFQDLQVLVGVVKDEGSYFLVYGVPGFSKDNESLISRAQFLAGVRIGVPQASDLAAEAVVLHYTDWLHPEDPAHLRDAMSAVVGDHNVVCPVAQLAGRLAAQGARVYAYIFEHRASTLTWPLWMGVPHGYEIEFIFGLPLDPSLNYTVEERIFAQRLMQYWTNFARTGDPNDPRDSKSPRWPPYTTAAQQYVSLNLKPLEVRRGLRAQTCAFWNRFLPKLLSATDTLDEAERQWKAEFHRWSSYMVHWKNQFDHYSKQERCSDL

Substance	tested on	test	system	setting	quantity	value
phoxim-oxon	Ache (Rattus norvegicus, UniProt P37136)	inhibitor	rat, postnatal day 1, rat skeletal muscle homogenate	15 min, 37 °C	IC50	0.014 µM
semaglutide	–	refers to: outcome unknown	human, safety analysis set	concentration not given, 32 weeks, run-in	participants with adverse events	0%
deucravacitinib	–	–	human	oral, 6 mg twice daily, day 12, steady state, multiple dose	Tmax	1 h
chicoric acid	–	UPLC	broiler chicken, plasma	oral gavage, 20 mg/kg	CL/F	680 ± 231 mL/min/kg
maraviroc	–	–	black CYP3A5 poor metabolizers, plasma	300 mg twice daily	Tmax	3 h

Repeated from above:
Substance	tested on	test	system	setting	quantity	value
chicoric acid	–	UPLC	broiler chicken, plasma	oral gavage, 20 mg/kg	CL/F	680 ± 231 mL/min/kg
